{"data": "Assay results pooled from the literature", "Genome polyprotein NS3 helicase domain": "Genome polyprotein, NS3 helicase domain (Hepatitis C virus genotype 1b, UniProt Q9WMX2)", "DRD3": "D(3) dopamine receptor (DRD3, Homo sapiens, UniProt P35462)", "CDK2 with cyclin A": "Cyclin-dependent kinase 2, with cyclin A (CDK2, Homo sapiens, UniProt P24941)", "KCNQ3/KCNQ2": "Voltage-gated potassium channel, KQT; KCNQ2(Kv7.2)/KCNQ3(Kv7.3) (KCNQ3/KCNQ2, Homo sapiens, UniProt O43525+O43526)", "note": "Lines come from different studies, so protocols differ. Values joined by “and” are separate records of one study, mostly repeats; a detail may differ. ± gives the spread as reported."}
{"Compound": "Cn1cc(-c2ccc(-c3cncc(Cl)c3N3CCC4(CCNC4=O)CC3)cc2)cn1", "tested on": "COLO 205", "test": "gene expression, microarray, measured: SLC2A4 mRNA", "conditions": "concentration not given, 2 h", "how to read": "baseline: untreated cells", "endpoint": "log2 fold change", "value": -3.11}
{"Compound": "CC(C)[C@H](NC(=O)[C@@H](NC(=O)CCCc1cn(CC(O)CN2CCN(CC(=O)O)CCN(CC(=O)O)CCN(CC(=O)O)CC2)nn1)[C@@H](C)O)C(=O)N[C@@H](CCCNC(=N)N)C(=O)N[C@H](C(=O)N[C@@H](CO)C(=O)N[C@@H](C)C(=O)N[C@@H](CC(=O)O)C(=O)O)[C@@H](C)O (stereo partly drawn)", "test": "ICP-MS, measured: gadolinium", "system": "healthy men, urine", "conditions": "intravenous, 0.08 mmol/kg", "endpoint": "percent dose excreted", "value": "117 ± 5.71%"}
{"Compound": "[2H]c1cc(C)c(NC(=O)c2cnc(Nc3cc(N4CCCCC4)nc(C)n3)s2)c(Cl)c1", "tested on": "Tyrosine-protein kinase Fyn (FYN, Homo sapiens, UniProt P06241)", "conditions": "0.01 µM", "endpoint": "inhibition", "value": "> 90%"}
{"Compound": "CC[C@@H]1[C@H](F)C(=O)N[C@@H]1COc1nccc2cc(C(N)=O)c(OC)cc12", "tested on": "Calcium/calmodulin-dependent protein kinase type II subunit delta (CAMK2D, Homo sapiens, UniProt Q13557)", "test": "ATP-site probe binding, ActivX profiling", "system": "THP-1 cell lysate", "conditions": "0.04 mM, Lys1 site", "endpoint": "inhibition", "value": "9.6%"}
{"Compound": "CN1CC(Oc2cnc(C#N)cc2-c2ccn3nc(NC(=O)C4CC4)cc3c2)C1", "tested on": "Protein kinase C beta type, beta-II isoform (PRKCB, Homo sapiens, UniProt P05771)", "test": "kinase activity", "conditions": "1 µM", "endpoint": "inhibition", "value": "-9%"}
{"Compound": "CC(C)c1ccc2c(c1)c(SC(C)(C)C)c(CC(C)(C)C(=O)O)n2Cc1ccc(Cl)cc1", "tested on": "Genome polyprotein NS3 helicase domain", "test": "DNA binding, inhibitor", "system": "hepatitis C virus", "conditions": "100 µM, with: Cy5-dT15 DNA", "endpoint": "inhibition", "value": "0%"}
{"Compound": "c1ccc(OC[C@@H]2CN(CCN3CCc4ccccc43)CCO2)cc1", "tested on": "DRD3", "test": "radioligand binding", "conditions": "concentration not given, with: [3H]N-methylspiperone", "endpoint": "inhibition", "value": "72.7%"}
{"Compound": "CC(C)C[C@H](NC(=O)C[C@H](O)[C@H](CC(C)C)NC(=O)[C@H](Cc1c[nH]cn1)NC(=O)CNC(=O)[C@@H](NC(=O)[C@H](C)NC(=O)[C@H](Cc1c[nH]c2ccccc12)NC(=O)[C@H](CCC(N)=O)NC(=O)[C@@H](Cc1ccccc1)NC(=O)COCCOCCNC(=O)CCC(C(=O)O)N1CCN(CC(=O)O)CCN(CC(=O)O)CCN(CC(=O)O)CC1)C(C)C)C(N)=O (stereo partly drawn) [lutetium-177 labelled]", "system": "BALB/c nu/nu mice, stomach", "conditions": "intravenous, 100 pmol, 1 h, with: PA 300 µg", "endpoint": "tissue uptake", "value": "2.1 ± 0.4 %ID/g"}
{"Compound": "CN(Cc1cc(C(F)(F)F)cc(C(F)(F)F)c1)c1nc2ccccc2c(=O)s1", "test": "reaction with N-acetyl-lysine, HPLC-MS", "conditions": "pH 10.2, with: N-α-acetyl-lysine", "endpoint": "pseudo-first-order rate constant", "value": "0 h⁻¹"}
{"Compound": "O=C(O)CN(CCN(CC(=O)O)CC(=O)O)CC(=O)O", "tested on": "Hydroxyacylglutathione hydrolase, mitochondrial (Homo sapiens, UniProt Q16775)", "test": "glyoxylase II activity", "conditions": "500 µM", "endpoint": "inhibition", "value": "41%"}
{"Compound": "C=CC(N)CCC(=O)O (racemic)", "tested on": "Genome polyprotein NS3 helicase domain", "test": "DNA binding, inhibitor", "system": "hepatitis C virus", "conditions": "100 µM, with: Cy5-dT15 DNA", "endpoint": "inhibition", "value": "0%"}
{"Compound": "CCCCCCCCC1NCCc2cc(O)c(O)cc21 (stereo not drawn)", "tested on": "tyrosinase", "test": "enzyme activity, inhibitor", "conditions": "100 µM, with: levodopa", "endpoint": "inhibition", "value": "8.58 ± 2.53%"}
{"Compound": "CS(=O)(=O)N(CC(=O)Nc1ccccc1C(=O)N1CCOCC1)c1ccc(Cl)cc1", "tested on": "CDK2 with cyclin A", "endpoint": "Kd", "value": "> 100 µM"}
{"Compound": "O=C(O)c1ccccc1Nc1cccc(OCc2ccc3ccccc3n2)c1", "tested on": "Genome polyprotein NS3 helicase domain", "test": "DNA binding, inhibitor", "system": "hepatitis C virus", "conditions": "100 µM, with: Cy5-dT15 DNA", "endpoint": "inhibition", "value": "0%"}
{"Compound": "CC/C(=N\\NC(=O)NCc1cccc(O)c1)c1ccc(O)c(C)c1O", "tested on": "Dual specificity mitogen-activated protein kinase kinase 4 (MAP2K4, Homo sapiens, UniProt P45985)", "test": "kinase activity", "conditions": "0.1 µM", "endpoint": "inhibition", "value": "0.9%"}
{"Compound": "O=C(Nc1cccc2c(=O)cc(-c3nnn[nH]3)oc12)c1ccc(OCCCCc2ccccc2)cc1", "tested on": "Volume-regulated anion channel subunit LRRC8C, part LRRC8A IL1 chimera (LRRC8C, Homo sapiens, UniProt Q8TDW0)", "test": "ion current, inhibitor, whole-cell patch clamp", "system": "HCT LRRC8-/- cells, transfected", "conditions": "0.3 µM, low ionic strength swelling, -100 mV", "endpoint": "inhibition", "value": "3.46% and -3.72% and -3.46% and 20%"}
{"Compound": "Nc1nc2c(ncn2[C@@H]2O[C@H](COP(=O)(O)O)[C@@H](O)[C@H]2O)c(=O)[nH]1", "tested on": "GUK1 (Homo sapiens, UniProt Q16774, Y81A)", "test": "enzyme activity, NADH-coupled", "conditions": "500 µM", "endpoint": "reaction rate", "value": "3.41 s⁻¹ and 2.92 s⁻¹ and 3.29 s⁻¹"}
{"Compound": "O=c1onc2cnc3ccccc3n12", "tested on": "Genome polyprotein NS3 helicase domain", "test": "DNA binding, inhibitor", "system": "hepatitis C virus", "conditions": "100 µM, with: Cy5-dT15 DNA", "endpoint": "inhibition", "value": "0%"}
{"Compound": "Nc1c(Br)cc(Br)cc1CN[C@H]1CC[C@H](O)CC1", "tested on": "KCNQ3/KCNQ2", "test": "ion current, antagonist, SyncroPatch patch clamp", "system": "HEK293", "conditions": "30 µM", "endpoint": "inhibition", "value": "23%"}
{"Compound": "O=C1C(SCCO)=C(SCCO)C(=O)c2ccccc21", "tested on": "Coagulation factor XIII A chain (F13A1, Homo sapiens, UniProt P00488)", "test": "crosslinking activity", "conditions": "15 µM, without DTT", "endpoint": "inhibition", "value": "inhibited"}
{"Compound": "COc1ccc(NC(=O)CN2CCOCC2)c([N+](=O)[O-])c1", "tested on": "CDK2 with cyclin A", "endpoint": "Kd", "value": "> 100 µM"}
{"Compound": "CNCc1ccc(-c2[nH]c3cc(F)cc4c3c2CCNC4=O)cc1", "system": "patients", "conditions": "oral, 840 mg twice daily, all grades", "endpoint": "cough incidence", "value": "66.7%"}
{"Compound": "CC(=O)SCC[N+](C)(C)C.[Cl-]", "tested on": "Genome polyprotein NS3 helicase domain", "test": "DNA binding, inhibitor", "system": "hepatitis C virus", "conditions": "100 µM, with: Cy5-dT15 DNA", "endpoint": "inhibition", "value": "0%"}
{"Compound": "Cc1ncccc1OC[C@H]1CN(CCN2CCc3ccccc32)CCO1", "tested on": "DRD3", "test": "radioligand binding", "conditions": "concentration not given, with: [3H]N-methylspiperone", "endpoint": "inhibition", "value": "50%"}
{"Compound": "NC(=O)c1cc[n+](CC2=C(C(=O)[O-])N3C(=O)[C@@H](NC(=O)C(c4ccccc4)S(=O)(=O)[O-])[C@H]3SC2)cc1.O.[Na+] (stereo partly drawn)", "tested on": "Genome polyprotein NS3 helicase domain", "test": "DNA binding, inhibitor", "system": "hepatitis C virus", "conditions": "100 µM, with: Cy5-dT15 DNA", "endpoint": "inhibition", "value": "4%"}
{"Compound": "CC12CC3CC(C)(C1)CC(N)(C3)C2", "tested on": "KCNQ3/KCNQ2", "test": "ion current, antagonist, SyncroPatch patch clamp", "system": "HEK293", "conditions": "30 µM", "endpoint": "inhibition", "value": "29%"}
{"Compound": "C=C(CS(=O)(=O)c1cc(C(F)(F)F)cc(C(F)(F)F)c1)C(=O)OCC", "test": "reaction with N-acetyl-lysine, HPLC-MS", "conditions": "pH 10.2, with: N-α-acetyl-lysine", "endpoint": "pseudo-first-order rate constant", "value": "29.4 h⁻¹"}
{"note": "Repeated from above:"}
{"Compound": "CC/C(=N\\NC(=O)NCc1cccc(O)c1)c1ccc(O)c(C)c1O", "tested on": "Dual specificity mitogen-activated protein kinase kinase 4 (MAP2K4, Homo sapiens, UniProt P45985)", "test": "kinase activity", "conditions": "0.1 µM", "endpoint": "inhibition", "value": "0.9%"}
{"Compound": "O=C(Nc1cccc2c(=O)cc(-c3nnn[nH]3)oc12)c1ccc(OCCCCc2ccccc2)cc1", "tested on": "Volume-regulated anion channel subunit LRRC8C, part LRRC8A IL1 chimera (LRRC8C, Homo sapiens, UniProt Q8TDW0)", "test": "ion current, inhibitor, whole-cell patch clamp", "system": "HCT LRRC8-/- cells, transfected", "conditions": "0.3 µM, low ionic strength swelling, -100 mV", "endpoint": "inhibition", "value": "3.46% and -3.72% and -3.46% and 20%"}
{"Compound": "Nc1nc2c(ncn2[C@@H]2O[C@H](COP(=O)(O)O)[C@@H](O)[C@H]2O)c(=O)[nH]1", "tested on": "GUK1 (Homo sapiens, UniProt Q16774, Y81A)", "test": "enzyme activity, NADH-coupled", "conditions": "500 µM", "endpoint": "reaction rate", "value": "3.41 s⁻¹ and 2.92 s⁻¹ and 3.29 s⁻¹"}
